Measurements of several laboratories.
Numbers after ± are the reported error. Converted amounts (≈) assume the structure as drawn.

| SMILES | tested on | assay | system | setting | how to read | measurement | result |
| --- | --- | --- | --- | --- | --- | --- | --- |
| C[C@@](O)(C(F)F)[C@H](NC(=O)c1ccc(C#CC#CC2CC2)cc1)C(=O)NO | Achromobacter xylosoxidans | agar dilution | clinical isolates | – | – | MIC90 | 0.5 µg/mL (≈ 1.33 µM) |
| CCCCCc1cc(O)c2c(c1)OC(C)(C)C1CCC(C)=CC21 (stereo not drawn) | – | – | rabbit, α-chymotrypsin glaucoma model | topical, 50 µL of 0.8% w/v, 1 h | reference: baseline | intraocular pressure | 66.6% |
| O=C(O)CC[C@H](NC(=O)N[C@@H](CCCCNC(=O)[C@H](Cc1ccc2ccccc2c1)NC(=O)[C@H]1CC[C@H](CNC(=O)CN2CCN(CC(=O)O)CCN(C(CCC(=O)NCCC[P+](c3ccccc3)(c3ccccc3)c3ccccc3)C(=O)O)CCN(CC(=O)O)CC2)CC1)C(=O)O)C(=O)O (stereo partly drawn) [terbium-161 labelled] | PC-3 PIP (PSMA+) | – | – | concentration not given | – | surface-bound activity | 62.7% |
| CN1CC23C4C5CC5C5C4C4C2C2CC2C4C53C1 (stereo not drawn) | Influenza A virus | viral replication | MDCK, H3N2 A/HK/7/87 | – | – | EC50 | > 100 µM |
| CC/C=C\C/C=C\C/C=C\C/C=C\C/C=C\C/C=C\CCC(=O)Nc1ccn(C2OC(CO)C(O)C2(F)F)c(=O)n1 (stereo not drawn) | MOLT-4 | NCI60 screen | – | – | – | CC50 | 93.1 µM |
| COC[C@@H](NC(C)=O)C(=O)NCc1ccc(N=[N+]=[N-])cc1 | voltage-gated sodium channel | – | CAD | 40 µM, photoaffinity modification, together with: UV 5 min then washout | – | channels in slow-inactivated state | ~20% |
| COC(=O)c1ccccc1NC(=O)Cc1cn(OC)c2ccccc12 | HIV-1 reverse transcriptase L100I/K103N | viral replication | – | VSV-G pseudotyped virus | reference: wild type | EC50 fold change | 2.14 ± 0.29 fold |
| N=C(N)N1CC23C4CCC5C4C4C2CCC4C53C1 | Influenza A virus | viral replication | MDCK, H1N1 A/PR/8/34 | – | – | EC50 | ≤ 1 µM |
| CCCCCCCCC(=O)NCc1ccc(O)c(OC)c1 | mAb 2-LD2 | antibody binding, indirect competitive ELISA | – | together with: coating antigen hapten 2-OVA | – | IC50 | 1.7 ng/mL (≈ 0.00579 µM) |
| NC[C@@H]1O[C@H](O[C@H]2[C@@H](O)[C@H](O[C@@H]3[C@@H](O)[C@H](N)C[C@H](N)[C@H]3O[C@H]3O[C@H](CO)[C@@H](OCCO)[C@H](O)[C@H]3N)O[C@@H]2CO)[C@H](N)[C@@H](O)[C@@H]1O | ribosome with human cytosolic A site | luciferase translation, cell-free translation | – | – | – | IC50 | 74400 ± 11900 ng/mL (≈ 113 µM) |
| CC[C@H](C)[C@H](NC(=O)[C@@H](NC(=O)[C@H](CC(=O)O)NC(C)=O)[C@@H](C)O)C(=O)N[C@@H](CCCNC(=N)N)C(=O)N[C@@H](CC(C)C)C(=O)N[C@@H](CC(C)C)C(=O)N[C@@H](Cc1ccccc1)C(=O)N[C@@H](CCC(N)=O)C(=O)N[C@@H](CC(C)C)C(=O)N[C@@H](CCSC)C(=O)N[C@@H](CCCNC(=N)N)C(=O)N1CCC[C@H]1C(=O)N1CCC[C@H]1C(=O)N[C@@H](CC(N)=O)C(=O)N[C@@H](CCSC)C(=O)N[C@H](C(=O)N1CCC[C@H]1C(=O)N[C@@H](C)C(=O)N[C@H](C(=O)N[C@@H](CC(N)=O)C(=O)N[C@@H](C)C(N)=O)C(C)C)[C@@H](C)O | – | measured: HA-15 tetramer | antigen-experienced tetramer+ CD4 T cells, healthy adults, HLA-DRB1*0101 | dose not given | – | α4β7− CCR9+ cells | 0% |
| N=C(N)N1CC23C4C=CC5C4C4C2C=CC4C53C1 | Influenza A virus | viral replication | MDCK, H3N2 A/HK/7/87 | – | – | EC50 | > 100 µM |
